Measurements collected from several papers.
Lines come from different studies, so protocols differ.

`CC[C@H](C)[C@H](NC(=O)CN)C(=O)N[C@@H](CCCCN)C(=O)N[C@@H](CCCCN)C(=O)N[C@@H](Cc1ccccc1)C(=O)N[C@@H](CC(C)C)C(=O)N[C@@H](CCCCN)C(=O)N[C@@H](CO)C(=O)N[C@]1(C)CCCCCCC=CCCC[C@@](C)(C(=O)N[C@@H](CCCCN)C(N)=O)NC(=O)[C@H](C)NC(=O)[C@H](CCCCN)NC(=O)[C@H](C(C)C)NC(=O)[C@H](Cc2ccccc2)NC(=O)[C@H](CCCCN)NC(=O)[C@H](CCCCN)NC1=O` gave a retention time of 2.36 min (UPLC; TFA water/acetonitrile gradient; longer = more hydrophobic).
`CCCC[C@H](NC(=O)[C@@H](NC(=O)[C@H](CCC(=O)O)NC(=O)CNC(=O)[C@@H](NC(=O)[C@H](Cc1ccccc1)NC(=O)[C@H](C)NC(=O)[C@H](CCCCN)NC(=O)CNC(=O)[C@H](Cc1ccccc1)NC(=O)[C@H](CCCCN)NC(=O)[C@H](CCCCN)NC(=O)[C@H](C)NC(=O)[C@H](CO)NC(=O)[C@H](Cc1c[nH]cn1)NC(=O)[C@H](CC(C)C)NC(=O)[C@]1(C)CCCC=CCCC[C@](C)(N)C(=O)N[C@@H]([C@@H](C)CC)C(=O)NCC(=O)N[C@@H](CCCCN)C(=O)N1)C(C)C)[C@@H](C)CC)C(=O)N[C@@H](CC(N)=O)C(=O)N[C@@H](CO)C(N)=O` gave a retention time of 12.1 min (HPLC C18 column).
`CC[C@H](C)[C@H](NC(=O)CN)C(=O)N[C@@H](CCCCN)C(=O)N[C@@H](CCCCN)C(=O)N[C@@]1(C)CCCC=CCCC[C@@](C)(C(=O)N[C@@H](CCCCN)C(=O)N[C@@H](CCCCN)C(=O)N[C@@H](Cc2ccccc2)C(=O)N[C@H](C(=O)N[C@@H](CCCCN)C(=O)N[C@@H](C)C(=O)N[C@@H](Cc2ccccc2)C(=O)N[C@@H](CCCCN)C(N)=O)C(C)C)NC(=O)[C@H](CO)NC(=O)[C@H](CCCCN)NC(=O)[C@H](CC(C)C)NC1=O` has a retention time of 2.31 min (UPLC; TFA water/acetonitrile gradient; longer = more hydrophobic).
With `CC[C@H](C)[C@H](NC(=O)[C@H](Cc1ccc(O)cc1)NC(=O)[C@@H](N)CC(C)C)C(=O)N[C@@H](CCC(N)=O)C(=O)N[C@@H](CC(N)=O)C(=O)N[C@@H](Cc1ccc(O)cc1)C(=O)O` the retention time was 15 min (RP-HPLC C18).
`CCCC[C@H](NC(=O)[C@@H](NC(=O)[C@H](CCC(=O)O)NC(=O)CNC(=O)[C@@H](NC(=O)[C@H](Cc1ccccc1)NC(=O)[C@]1(C)CCCC=CCCC[C@](C)(NC(=O)[C@H](CCCCN)NC(=O)[C@H](C)NC(=O)[C@H](CO)NC(=O)[C@H](Cc2c[nH]cn2)NC(=O)[C@H](CC(C)C)NC(=O)[C@H](Cc2ccccc2)NC(=O)[C@H](CCCCN)NC(=O)CNC(=O)[C@@H](NC(=O)CN)[C@@H](C)CC)C(=O)N[C@@H](Cc2ccccc2)C(=O)NCC(=O)N[C@@H](CCCCN)C(=O)N1)C(C)C)[C@@H](C)CC)C(=O)N[C@@H](CC(N)=O)C(=O)N[C@@H](CO)C(N)=O` has a retention time of 13.3 min (HPLC C18 column).
`CC[C@H](C)[C@H](NC(=O)CN)C(=O)N[C@@H](CCCCN)C(=O)N[C@@H](CCCCN)C(=O)N[C@@H](Cc1ccccc1)C(=O)N[C@@H](CC(C)C)C(=O)N[C@@H](CCCCN)C(=O)N[C@]1(C)CCCCCCC=CCCC[C@@](C)(C(=O)N[C@@H](Cc2ccccc2)C(=O)N[C@@H](CCCCN)C(N)=O)NC(=O)[C@H](CCCCN)NC(=O)[C@H](C(C)C)NC(=O)[C@H](Cc2ccccc2)NC(=O)[C@H](CCCCN)NC(=O)[C@H](CCCCN)NC(=O)[C@H](C)NC1=O` has a retention time of 2.6 min (UPLC; TFA water/acetonitrile gradient; longer = more hydrophobic).
For `CCCC(=O)N[C@@H](CCCCN)C(=O)N[C@@H](CCCCN)C(=O)N[C@@H](C)C(=O)N[C@@H](CC(C)C)C(=O)N[C@@H](CCCCN)C(=O)N[C@@H](CC(C)C)C(=O)N[C@@H](C)C(=O)N[C@@H](CCCCN)C(=O)N[C@@H](CCCCN)C(=O)N1CCC[C@H]1C(=O)N[C@@H](CC(C)C)C(=O)N[C@@H](CCCCN)C(=O)N[C@@H](CC(C)C)C(=O)N[C@@H](CC(C)C)C(=O)N[C@@H](CCCCN)C(N)=O`, the retention time was 16.1 min (reversed-phase HPLC (C18); water/acetonitrile TFA gradient).
For `CCCC[C@H](NC(=O)[C@@H](NC(=O)[C@H](CCC(=O)O)NC(=O)CNC(=O)[C@@H](NC(=O)[C@]1(C)CCCC=CCCC[C@](C)(NC(=O)[C@H](CCCCN)NC(=O)[C@H](CCCCN)NC(=O)[C@H](C)NC(=O)[C@H](CO)NC(=O)[C@H](Cc2c[nH]cn2)NC(=O)[C@H](CC(C)C)NC(=O)[C@H](Cc2ccccc2)NC(=O)[C@H](CCCCN)NC(=O)CNC(=O)[C@@H](NC(=O)CN)[C@@H](C)CC)C(=O)NCC(=O)N[C@@H](CCCCN)C(=O)N[C@@H](C)C(=O)N1)C(C)C)[C@@H](C)CC)C(=O)N[C@@H](CC(N)=O)C(=O)N[C@@H](CO)C(N)=O`, the retention time was 12.9 min (HPLC C18 column).
The retention time of `CC[C@H](C)[C@H](NC(=O)[C@H](CC(N)=O)NC(=O)[C@@H](N)CC(C)C)C(=O)N[C@@H](CCC(N)=O)C(=O)N[C@@H](Cc1c[nH]c2ccccc12)C(=O)N[C@@H](CC(C)C)C(=O)O` is reported as 17.6 min (RP-HPLC C18).
For `CCCC[C@H](NC(=O)[C@@H](NC(=O)[C@H](CCC(=O)O)NC(=O)CNC(=O)[C@@H](NC(=O)[C@H](Cc1ccccc1)NC(=O)[C@H](C)NC(=O)[C@H](CCCCN)NC(=O)CNC(=O)[C@H](Cc1ccccc1)NC(=O)[C@]1(C)CCCC=CCCC[C@](C)(NC(=O)[C@H](CC(C)C)NC(=O)[C@H](Cc2ccccc2)NC(=O)[C@H](CCCCN)NC(=O)CNC(=O)[C@@H](NC(=O)CN)[C@@H](C)CC)C(=O)N[C@@H](CO)C(=O)N[C@@H](C)C(=O)N[C@@H](CCCCN)C(=O)N1)C(C)C)[C@@H](C)CC)C(=O)N[C@@H](CC(N)=O)C(=O)N[C@@H](CO)C(N)=O`, the retention time was 13.7 min (HPLC C18 column).
`CCCC[C@H](NC(=O)[C@H](Cc1ccc(O)cc1)NC(=O)[C@@H](N)CC(C)C)C(=O)N[C@@H](CCC(N)=O)C(=O)N[C@@H](CC(N)=O)C(=O)N[C@@H](Cc1ccc(O)cc1)C(=O)O` has a retention time of 15.4 min (RP-HPLC C18).
For `CC[C@H](C)[C@H](NC(=O)CN)C(=O)N[C@@H](CCCCN)C(=O)N[C@@H](CCCCN)C(=O)N[C@@H](Cc1ccccc1)C(=O)N[C@]1(C)CCCCCCC=CCCC[C@@](C)(C(=O)N[C@@H](CCCCN)C(=O)N[C@@H](C)C(=O)N[C@@H](Cc2ccccc2)C(=O)N[C@@H](CCCCN)C(N)=O)NC(=O)[C@H](Cc2ccccc2)NC(=O)[C@H](CCCCN)NC(=O)[C@H](CCCCN)NC(=O)[C@H](C)NC(=O)[C@H](CO)NC(=O)[C@H](CCCCN)NC1=O`, the retention time was 2.41 min (UPLC; TFA water/acetonitrile gradient; longer = more hydrophobic).
`NCC(=O)N[C@@H](CC(N)=O)C(=O)N[C@@H](CC(N)=O)C(=O)N[C@@H](CCC(N)=O)C(=O)N[C@@H](CCC(N)=O)C(=O)N[C@@H](CC(N)=O)C(=O)N[C@@H](Cc1ccc(O)cc1)C(=O)O` has a retention time of 9.61 min (RP-HPLC C18).
With `CC[C@H](C)[C@H](NC(=O)CNC(=O)[C@H](CCCCN)NC(=O)[C@H](CCCCN)NC(=O)[C@@H](N)CCC(=O)O)C(=O)N[C@@H](CC(C)C)C(=O)N[C@@H](CCC(=O)O)C(=O)N[C@@H](CCCCN)C(=O)N[C@H](C(=O)N[C@@H](CCCCN)C(=O)N[C@@H](CCC(=O)O)C(=O)N[C@@H](CCCCN)C(=O)N[C@@H](CC(C)C)C(=O)N1CCC[C@H]1C(=O)NCC(N)=O)[C@@H](C)CC` the retention time was 14.9 min (RP-HPLC; C18 column).

A few entries again:
`CC[C@H](C)[C@H](NC(=O)CN)C(=O)N[C@@H](CCCCN)C(=O)N[C@@H](CCCCN)C(=O)N[C@@H](Cc1ccccc1)C(=O)N[C@@H](CC(C)C)C(=O)N[C@@H](CCCCN)C(=O)N[C@]1(C)CCCCCCC=CCCC[C@@](C)(C(=O)N[C@@H](Cc2ccccc2)C(=O)N[C@@H](CCCCN)C(N)=O)NC(=O)[C@H](CCCCN)NC(=O)[C@H](C(C)C)NC(=O)[C@H](Cc2ccccc2)NC(=O)[C@H](CCCCN)NC(=O)[C@H](CCCCN)NC(=O)[C@H](C)NC1=O` has a retention time of 2.6 min (UPLC; TFA water/acetonitrile gradient; longer = more hydrophobic).
